Results collected from several papers.
Each line is one published result; not all experiments were run side by side. ± gives the spread as reported.
Technique: steady-state kinetics
B1: Paox H64A (Mus musculus, UniProt Q8C0L6); chain MAFPGPRVLVVGSGIAGLGAAQKLCSHRAAPHLRVLEATASAGGRIRSERCFGGVVELGAHWIAGPSQDNPVFQLAAEFGLLGEKELSEENQLVDTGGHVALPSMIWSSSGTSVSLELMTEMARLFYGLIERTREFLNESETPMASVGEFLKKEISQQVASWTEDDEDTRKRKLAILNTFFNIECCVSGTHSMDLVALAPFGEYTVLPGLDCILAGGYQGLTDRILASLPKDTVAFDKPVKTIHWNGSFQEAAFPGETFPVLVECEDGARLPAHHVIVTVPLGFLKEHQDTFFEPPLPAKKAEAIKKLGFGTNNKIFLEFEEPFWEPDCQFIQVVWEDTSPLQDTALSLQDTWFKKLIGFLVQPSFESSHVLCGFIAGLESEFMETLSDEEVLLSLTQVLRRVTGNPQLPAAKSVRRSQWHSAPYTRGSYSYVAVGSTGDDLDLMAQPLPEDGTGTQLQVLFAGEATHRTFYSTTHGALLSGWREADRLVSLWDSQVEQSRPRL
B2: hflX K210A/N207A (Escherichia coli, UniProt P25519); chain MFDRYDAGEQAVLVHIYFTQDKDMEDLQEFESLVSSAGVEALQVITGSRKAPHPKYFVGEGKAVEIAEAVKATGASVVLFDHALSPAQERNLERLCECRVIDRTGLILDIFAQRARTHEGKLQVELAQLRHLATRLVRGWTHLERQKGGIGLRGPGETQLETDRRLLRNRIVQIQSRLERVEKQREQGRQSRIKADVPTVSLVGYTAAGASTLFNRITEARVYAADQLFATLDPTLRRIDVADVGETVLADTVGFIRHLPHDLVAAFKATLQETRQATLLLHVIDAADVRVQENIEAVNTVLEEIDAHEIPTLLVMNKIDMLEDFEPRIDRDEENKPNRVWLSAQTGAGIPQLFQALTERLSGEVAQHTLRLPPQEGRLRSRFYQLQAIEKEWMEEDGSVSLQVRMPIVDWRRLCKQEPALIDYLI
B3: protein (Trichoderma virens, UniProt G9MQB8); chain GQVPVSVNYHFSRKCNKECLFCFHTATTSHVEKPENAKRGLTLLKQAGMKKINFAGGEPFLYPKFLGEMIDFCKETLQLESVSIVTNGSLVKEQFLQKHGRNIDILAVSCDSFNEATNIKIGRGSGDNVQKLYEIGSWCQKYDIKFKLNTVVNKFNHLEDMNDHLNALQPFRWKCFQVLIVTGENDSDKTLRNAHSLTISDDEFDRFCERHSSQTCLVPEPNRLMAKSYLILDEYMRFLDRNGQQPSKSILEVGVQQALQAVFWDEEAFVERGGIYDWNKSSCSSDSKDLEW
B4: TcC (Trypanosoma cruzi, UniProt Q4DGA3); chain MPREYEFAEKILFTEEEIRTRIMEVAKRIADDYKGKGLRPYVNPLVLISVLKGSFMFTADLCRALSDFNVPVRMEFICVSSYGEGVTSSGQVRMLLDTRHSIEGHHVLIVEDIVDTALTLNYLYHMYFTRRPASLKTVVLLDKREGRRVPFSADYVVANIPNAFVIGYGLDYDDTYRELRDIVVLRPEVYAEREAARQKKQRAIGSADTDRDAKREFHSKY
B5: MSS116 T307A (Saccharomyces cerevisiae, UniProt P15424); chain LYNDGNRDQRNFGRNQRNNNSNRYRNSRFNSRPRTRSREDDDEVHFDKTTFSKLIHVPKEDNSKEVTLDSLLEEGVLDKEIHKAITRMEFPGLTPVQQKTIKPILSSEDHDVIARAKTGTGKTFAFLIPIFQHLINTKFDSQYMVKAVIVAPTRDLALQIEAEVKKIHDMNYGLKKYACVSLVGGTDFRAAMNKMNKLRPNIVIATPGRLIDVLEKYSNKFFRFVDYKVLDEADRLLEIGFRDDLETISGILNEKNSKSADNIKTLLFSAALDDKVQKLANNIMNKKECLFLDTVDKNEPEAHERIDQSVVISEKFANSIFAAVEHIKKQIKERDSNYKAIIFAPTVKFTSFLCSILKNEFKKDLPILEFHGKITQNKRTSLVKRFKKDESGILVCTDVGARGMDFPNVHEVLQIGVPSELANYIHRIGRTARSGKEGSSVLFICKDELPFVRELEDAKNIVIAKQEKYEPSEEIKSEVLEAVTEEPEDISDIVISLISSYRSCIKEYRFSERRILPEIASTYGVLLNDPQLKIPVSRRFLDKLGLSRSPIGKAMFEIRDYSSRDGNNKSYDYDDDSEISFRGNKNYNNRSQNRDYDDEPFRRSNNNRRSFSRSNDKNNYSSRNSNIY
B6: protein (Danio rerio, UniProt F1QXD3); chain MALSRALRCCQRIFSWIPVIIISSVVLWSYYAYVFELCFVTLSNNLERVTYLLIFHVCFIMFCWTYWKAIFTPPSTPTKKFHLSYTDKERYEMEERPEVQKQILVDIAKKLPIFTRAQSGAIRFCDRCQVIKPDRCHHCSVCETCVLKMDHHCPWVNNCVGFSNYKFFLLFLSYSMIYCVFIASTVFQYFLKFWVGDLPNGPAKFHVLFLLFVALMFFVSLMFLFGYHCWLVAKNRSTLEAFSPPVFQNGPDRNGFNVGLSKNLRQVFGEHKKLWFIPVFTSQGDGHYFPLRTLRESENPLLANEEKWVEDGGSDEESADENGSSLLIRTES
B7: BshA Y95F (Bacillus subtilis, UniProt P42982); chain MRKLKIGITCYPSVGGSGIIATELGKQLAEKGHEIHFITSSIPFRLNTYHPNIHFHEVEVNQYAVFKYPPYDLTLASKIAEVAERENLDIIHAHFALPHAVCAYLAKQMLKRNIGIVTTLHGTDITVLGYDPSLKDLIRFAIESSDRVTAVSSALAAETYDLIKPEKKIETIYNFIDERVYLKKNTAAIKEKHGILPDEKVVIHVSNFRKVKRVQDVIRVFRNIAGKTKAKLLLVGDGPEKSTACELIRKYGLEDQVLMLGNQDRVEDLYSISDLKLLLSEKESFGLVLLEAMACGVPCIGTNIGGIPEVIKNNVSGFLVDVGDVTAATARAMSILEDEQLSNRFTKAAIEMLENEFSSKKIVSQYEQIYADLAEPE
B8: carbamoyl phosphate synthetase large subunit A23F/C24F/I18W (Escherichia coli, UniProt P00968); chain PKRTDIKSILILGAGPWVIGQFFEFDYSGAQACKALREEGYRVILVNSNPATIMTDPEMADATYIEPIHWEVVRKIIEKERPDAVLPTMGGQTALNCALELERQGVLEEFGVTMIGATADAIDKAEDRRRFDVAMKKIGLETARSGIAHTMEEALAVAADVGFPCIIRPSFTMGGSGGGIAYNREEFEEICARGLDLSPTKELLIDESLIGWKEYEMEVVRDKNDNCIIVCSIENFDAMGIHTGDSITVAPAQTLTDKEYQIMRNASMAVLREIGVETGGSNVQFAVNPKNGRLIVIEMNPRVSRSSALASKATGFPIAKVAAKLAVGYTLDELMNDITGGRTPASFEPSIDYVVTKIPRFNFEKFAGANDRLTTQMKSVGEVMAIGRTQQESLQKALRGLEVGATGFDPKVSLDDPEALTKIRRELKDAGADRIWYIADAFRAGLSVDGVFNLTNIDRWFLVQIEELVRLEEKVAEVGITGLNADFLRQLKRKGFADARLAKLAGVREAEIRKLRDQYDLHPVYKRVDTCAAEFATDTAYMYSTYEEECEANPSTDREKIMVLGGGPNRIGQGIEFDYCCVHASLALREDGYETIMVNCNPETVSTDYDTSDRLYFEPVTLEDVLEIVRIEKPKGVIVQYGGQTPLKLARALEAAGVPVIGTSPDAIDRAEDRERFQHAVERLKLKQPANATVTAIEMAVEKAKEIGYPLVVRPSYVLGGRAMEIVYDEADLRRYFQTAVSVSNDAPVLLDHFLDDAVEVDVDAICDGEMVLIGGIMEHIEQAGVHSGDSACSLPAYTLSQEIQDVMRQQVQKLAFELQVRGLMNVQFAVKNNEVYLIEVNPRAARTVPFVSKATGVPLAKVAARVMAGKSLAEQGVTKEVIPPYYSVKEVVLPFNKFPGVDPLLGPEMRSTGEVMGVGRTFAEAFAKAQLGSNSTMKKHGRALLSVREGDKERVVDLAAKLLKQGFELDATHGTAIVLGEAGINPRLVNKVHEGRPHIQDRIKNGEYTYIINTTSGRRAIEDSRVIRRSALQYKVHYDTTLNGGFATAMALNADATEKVISVQEMHAQIK
B9: protein (Streptomyces coelicolor, UniProt P16544); chain MATQDSEVALVTGATSGIGLEIARRLGKEGLRVFVCARGEEGLRTTLKELREAGVEADGRTCDVRSVPEIEALVAAVVERYGPVDVLVNNAGRPGGGATAELADELWLDVVETNLTGVFRVTKQVLKAGGMLERGTGRIVNIASTGGKQGVVHAAPYSASKHGVVGFTKALGLELARTGITVNAVCPGFVETPMAASVREHYSDIWEVSTEEAFDRITARVPIGRYVQPSEVAEMVAYLIGPGAAAVTAQALNVCGGLGNY
Chain of UniProt Q7L266 (whole entry, looked up): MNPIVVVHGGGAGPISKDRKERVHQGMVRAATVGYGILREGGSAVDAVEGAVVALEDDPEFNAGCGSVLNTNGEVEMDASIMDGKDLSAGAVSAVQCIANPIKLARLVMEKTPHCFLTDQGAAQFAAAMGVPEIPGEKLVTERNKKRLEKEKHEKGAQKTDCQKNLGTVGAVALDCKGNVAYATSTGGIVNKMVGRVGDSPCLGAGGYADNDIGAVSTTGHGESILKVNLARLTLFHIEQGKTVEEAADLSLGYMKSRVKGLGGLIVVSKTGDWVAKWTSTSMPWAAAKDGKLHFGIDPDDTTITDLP
Chain of UniProt P12081 (whole entry, looked up): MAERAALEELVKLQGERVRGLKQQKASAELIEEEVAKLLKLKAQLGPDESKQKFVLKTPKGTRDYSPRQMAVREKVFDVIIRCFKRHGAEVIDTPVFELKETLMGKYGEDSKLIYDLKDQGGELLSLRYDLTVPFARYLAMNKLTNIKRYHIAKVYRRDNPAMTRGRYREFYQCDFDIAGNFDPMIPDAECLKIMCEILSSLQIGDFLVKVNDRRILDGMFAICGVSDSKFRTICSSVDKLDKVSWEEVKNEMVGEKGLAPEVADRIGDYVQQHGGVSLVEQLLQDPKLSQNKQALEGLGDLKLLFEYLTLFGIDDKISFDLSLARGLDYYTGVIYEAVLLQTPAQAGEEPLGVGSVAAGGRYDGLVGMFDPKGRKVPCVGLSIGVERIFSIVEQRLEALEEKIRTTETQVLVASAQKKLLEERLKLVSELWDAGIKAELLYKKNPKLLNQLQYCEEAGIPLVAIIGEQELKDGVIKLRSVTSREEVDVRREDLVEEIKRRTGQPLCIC

B1 (Paox H64A)
kcat (CC(=O)NCCCNCCCCNCCCN; pH 10, 30 °C): 3.1 ± 0.1 s⁻¹

alanine aminopeptidase (Neisseria meningitidis, UniProt Q9JYV4)
kcat (NC(=O)Cc1cc(=O)oc2cc(NC(=O)[C@@H](N)CC(=O)OCc3ccccc3)ccc12; pH 7.5, 37 °C): 3.64 ± 0.05 s⁻¹

HARS1 (Homo sapiens, UniProt P12081)
kcat (N[C@@H](Cc1c[nH]cn1)C(=O)O; pH 7.5, 37 °C, KCl 150 mM, with: tRNA(His)): 4.1 ± 0.4 s⁻¹

B2 (hflX K210A/N207A)
kcat (Nc1nc2c(ncn2[C@@H]2O[C@H](COP(=O)(O)OP(=O)(O)OP(=O)(O)O)[C@@H](O)[C@H]2O)c(=O)[nH]1; pH 8, 37 °C, with: MgCl2 5 mM, NaCl 200 mM): 0.00783 ± 0.0015 s⁻¹

B3 (protein)
kcat (Nc1ccn([C@@H]2O[C@H](COP(=O)(O)OP(=O)(O)OP(=O)(O)O)[C@@H](O)[C@H]2O)c(=O)n1; pH 7.5, KCl 150 mM, with: SAM 1 mM, dithionite 5 mM): 0.00108 ± 0.0001 s⁻¹

B4 (TcC)
kcat (Nc1nc2nc[nH]c2c(=O)[nH]1; pH 8.3, 37 °C, apparent, with: PRPP 1 mM, MgCl2 12 mM): 30 ± 1 s⁻¹

ASRGL1 (Homo sapiens, UniProt Q7L266)
kcat (NC(=O)C[C@H](N)C(=O)O; pH 7.4, 37 °C, NaCl 100 mM): 6.9 ± 0.2 s⁻¹

enzyme (Acetivibrio thermocellus, UniProt A3DC45)
kcat (NC(=O)c1ccc[n+]([C@@H]2O[C@H](COP(=O)(O)OP(=O)(O)OC[C@H]3O[C@@H](n4cnc5c(N)ncnc54)[C@H](OP(=O)(O)O)[C@@H]3O)[C@@H](O)[C@H]2O)c1; pH 8, 25 °C, cofactor varied, per site): 35.6 s⁻¹

B5 (MSS116 T307A)
kcat (Nc1ncnc2c1ncn2[C@@H]1O[C@H](COP(=O)(O)OP(=O)(O)OP(=O)(O)O)[C@@H](O)[C@H]1O; pH 7.5, 37 °C, with: ATP): 0.0128 ± 0.00433 s⁻¹

B6 (protein)
kcat (CCCCCCCCCCCCCCCC(=O)SCCNC(=O)CCNC(=O)[C@H](O)C(C)(C)COP(=O)(O)OP(=O)(O)OC[C@H]1O[C@@H](n2cnc3c(N)ncnc32)[C@H](O)[C@@H]1OP(=O)(O)O; pH 6.8, 30 °C): 0.243 ± 0.0133 s⁻¹

B7 (BshA Y95F)
kcat (O=C(O)C[C@H](O)C(=O)O; pH 7.5, 21 °C, with: UDP-GlcNAc 0–4 mM): 0.92 ± 0.03 s⁻¹

B8
kcat (Nc1ncnc2c1ncn2[C@@H]1O[C@H](COP(=O)(O)OP(=O)(O)OP(=O)(O)O)[C@@H](O)[C@H]1O; pH 7.6, KCl 100 mM, with: glutamine 10 mM, ornithine 10 mM): 0.06 ± 0.002 s⁻¹

B9 (protein)
kcat (O[C@@H]1CCCc2ccccc21; pH 7.4, phosphate 400 mM, NADPH 250 µM printed, with: NADP+, reverse reaction): 0.06 ± 0.004 s⁻¹
